Measurements of several laboratories.
Parts stem from different laboratories: compare values within a part only.
UniProt Q14012, sequence (whole entry, looked up): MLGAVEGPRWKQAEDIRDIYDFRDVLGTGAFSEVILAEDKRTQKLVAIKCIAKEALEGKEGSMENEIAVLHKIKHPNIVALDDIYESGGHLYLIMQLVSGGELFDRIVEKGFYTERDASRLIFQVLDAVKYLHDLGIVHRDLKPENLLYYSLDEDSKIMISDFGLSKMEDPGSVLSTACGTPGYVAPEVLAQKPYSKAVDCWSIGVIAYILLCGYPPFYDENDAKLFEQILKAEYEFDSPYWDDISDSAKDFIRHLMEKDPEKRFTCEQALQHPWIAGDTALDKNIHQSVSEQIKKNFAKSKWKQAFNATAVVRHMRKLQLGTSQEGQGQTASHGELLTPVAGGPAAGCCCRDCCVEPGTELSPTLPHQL
UniProt Q9UBS0, sequence (whole entry, looked up): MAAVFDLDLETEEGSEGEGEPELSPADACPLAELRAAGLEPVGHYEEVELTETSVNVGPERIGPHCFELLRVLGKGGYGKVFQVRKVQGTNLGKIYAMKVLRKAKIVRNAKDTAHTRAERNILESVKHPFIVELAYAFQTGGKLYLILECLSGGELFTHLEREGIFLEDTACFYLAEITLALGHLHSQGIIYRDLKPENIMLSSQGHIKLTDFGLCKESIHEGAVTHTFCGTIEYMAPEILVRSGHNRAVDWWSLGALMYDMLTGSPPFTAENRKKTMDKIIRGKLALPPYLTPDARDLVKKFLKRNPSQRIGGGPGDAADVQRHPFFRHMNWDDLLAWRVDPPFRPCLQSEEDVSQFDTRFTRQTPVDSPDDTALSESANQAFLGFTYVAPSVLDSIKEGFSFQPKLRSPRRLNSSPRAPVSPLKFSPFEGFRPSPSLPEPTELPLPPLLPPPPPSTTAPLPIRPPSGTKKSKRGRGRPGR
UniProt P54753, sequence (whole entry, looked up): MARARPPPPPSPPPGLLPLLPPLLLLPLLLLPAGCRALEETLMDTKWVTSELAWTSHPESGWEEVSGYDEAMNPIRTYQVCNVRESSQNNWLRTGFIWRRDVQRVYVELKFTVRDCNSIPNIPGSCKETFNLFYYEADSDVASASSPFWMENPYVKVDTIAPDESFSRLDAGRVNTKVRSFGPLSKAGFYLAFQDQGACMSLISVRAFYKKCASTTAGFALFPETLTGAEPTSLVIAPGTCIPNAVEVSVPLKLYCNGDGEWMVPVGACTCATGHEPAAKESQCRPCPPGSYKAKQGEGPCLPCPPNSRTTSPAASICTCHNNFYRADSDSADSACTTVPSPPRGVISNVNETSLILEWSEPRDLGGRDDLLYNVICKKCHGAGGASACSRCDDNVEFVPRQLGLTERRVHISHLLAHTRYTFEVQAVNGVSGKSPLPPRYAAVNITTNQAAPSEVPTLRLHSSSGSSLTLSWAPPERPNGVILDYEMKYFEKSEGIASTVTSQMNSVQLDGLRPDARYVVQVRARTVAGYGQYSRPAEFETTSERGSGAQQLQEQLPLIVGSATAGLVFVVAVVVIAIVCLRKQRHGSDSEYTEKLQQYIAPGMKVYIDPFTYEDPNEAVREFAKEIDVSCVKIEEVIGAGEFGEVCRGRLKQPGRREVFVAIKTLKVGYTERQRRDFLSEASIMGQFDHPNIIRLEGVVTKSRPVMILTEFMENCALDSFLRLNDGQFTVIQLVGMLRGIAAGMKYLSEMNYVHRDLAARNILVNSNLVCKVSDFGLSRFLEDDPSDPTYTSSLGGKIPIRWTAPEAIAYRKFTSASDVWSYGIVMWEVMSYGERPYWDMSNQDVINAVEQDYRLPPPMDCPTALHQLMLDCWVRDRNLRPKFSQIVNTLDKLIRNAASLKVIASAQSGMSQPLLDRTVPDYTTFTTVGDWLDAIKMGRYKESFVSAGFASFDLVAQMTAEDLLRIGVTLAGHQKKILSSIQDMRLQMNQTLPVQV
UniProt Q8IWQ3, sequence (whole entry, looked up): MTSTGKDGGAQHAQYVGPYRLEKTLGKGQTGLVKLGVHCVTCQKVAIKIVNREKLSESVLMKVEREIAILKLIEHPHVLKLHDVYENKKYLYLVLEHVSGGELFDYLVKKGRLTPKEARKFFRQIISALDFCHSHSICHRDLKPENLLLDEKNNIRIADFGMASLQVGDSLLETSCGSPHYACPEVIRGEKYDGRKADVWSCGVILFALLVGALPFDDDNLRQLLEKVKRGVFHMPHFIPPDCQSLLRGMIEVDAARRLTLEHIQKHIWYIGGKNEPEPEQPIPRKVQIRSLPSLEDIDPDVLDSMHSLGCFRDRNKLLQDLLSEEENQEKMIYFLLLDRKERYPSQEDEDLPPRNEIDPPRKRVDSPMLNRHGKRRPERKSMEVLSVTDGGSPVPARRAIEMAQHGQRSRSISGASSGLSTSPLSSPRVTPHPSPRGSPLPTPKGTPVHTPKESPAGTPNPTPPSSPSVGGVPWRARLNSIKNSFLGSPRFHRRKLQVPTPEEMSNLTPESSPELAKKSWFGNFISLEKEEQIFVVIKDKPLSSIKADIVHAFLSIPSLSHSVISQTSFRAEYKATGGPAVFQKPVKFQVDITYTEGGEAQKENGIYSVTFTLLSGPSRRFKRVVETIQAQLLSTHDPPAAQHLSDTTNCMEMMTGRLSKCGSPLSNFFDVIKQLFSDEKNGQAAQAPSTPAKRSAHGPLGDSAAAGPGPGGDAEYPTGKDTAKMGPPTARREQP
UniProt P08069, sequence (whole entry, looked up): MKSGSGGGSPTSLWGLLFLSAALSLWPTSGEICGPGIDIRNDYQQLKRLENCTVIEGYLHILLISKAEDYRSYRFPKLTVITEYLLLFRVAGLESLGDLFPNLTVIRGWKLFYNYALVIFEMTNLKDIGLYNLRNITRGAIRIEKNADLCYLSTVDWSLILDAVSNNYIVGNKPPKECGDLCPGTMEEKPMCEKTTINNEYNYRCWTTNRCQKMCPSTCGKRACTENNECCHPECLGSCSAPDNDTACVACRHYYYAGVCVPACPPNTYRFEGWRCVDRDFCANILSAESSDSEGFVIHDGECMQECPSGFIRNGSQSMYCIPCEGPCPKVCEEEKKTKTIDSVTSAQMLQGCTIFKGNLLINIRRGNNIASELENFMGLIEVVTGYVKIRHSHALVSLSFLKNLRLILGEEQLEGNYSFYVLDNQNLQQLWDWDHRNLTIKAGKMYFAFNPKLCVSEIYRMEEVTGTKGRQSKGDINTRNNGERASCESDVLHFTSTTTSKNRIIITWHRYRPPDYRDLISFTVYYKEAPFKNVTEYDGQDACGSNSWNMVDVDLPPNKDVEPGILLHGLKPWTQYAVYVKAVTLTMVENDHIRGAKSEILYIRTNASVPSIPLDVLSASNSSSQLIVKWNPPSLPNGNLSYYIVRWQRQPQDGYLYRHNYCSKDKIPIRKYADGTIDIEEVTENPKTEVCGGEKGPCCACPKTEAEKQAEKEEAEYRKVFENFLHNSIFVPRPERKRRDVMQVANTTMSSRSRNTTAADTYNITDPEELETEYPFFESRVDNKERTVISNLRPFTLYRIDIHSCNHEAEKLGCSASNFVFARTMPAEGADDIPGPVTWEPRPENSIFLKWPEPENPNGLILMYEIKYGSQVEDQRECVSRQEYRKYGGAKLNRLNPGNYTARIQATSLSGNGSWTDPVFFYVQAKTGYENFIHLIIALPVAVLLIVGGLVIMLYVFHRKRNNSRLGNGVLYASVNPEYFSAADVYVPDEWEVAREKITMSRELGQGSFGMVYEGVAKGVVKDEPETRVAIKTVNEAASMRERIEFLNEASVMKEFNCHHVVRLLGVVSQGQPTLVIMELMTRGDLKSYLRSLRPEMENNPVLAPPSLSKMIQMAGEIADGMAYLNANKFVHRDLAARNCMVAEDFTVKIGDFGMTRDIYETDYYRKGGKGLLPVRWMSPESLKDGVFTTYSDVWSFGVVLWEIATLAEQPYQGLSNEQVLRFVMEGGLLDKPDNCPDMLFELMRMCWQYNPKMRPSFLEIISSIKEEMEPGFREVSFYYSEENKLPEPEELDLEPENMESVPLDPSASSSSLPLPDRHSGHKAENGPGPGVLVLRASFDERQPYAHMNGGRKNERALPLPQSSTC
UniProt Q9UF33, sequence (whole entry, looked up): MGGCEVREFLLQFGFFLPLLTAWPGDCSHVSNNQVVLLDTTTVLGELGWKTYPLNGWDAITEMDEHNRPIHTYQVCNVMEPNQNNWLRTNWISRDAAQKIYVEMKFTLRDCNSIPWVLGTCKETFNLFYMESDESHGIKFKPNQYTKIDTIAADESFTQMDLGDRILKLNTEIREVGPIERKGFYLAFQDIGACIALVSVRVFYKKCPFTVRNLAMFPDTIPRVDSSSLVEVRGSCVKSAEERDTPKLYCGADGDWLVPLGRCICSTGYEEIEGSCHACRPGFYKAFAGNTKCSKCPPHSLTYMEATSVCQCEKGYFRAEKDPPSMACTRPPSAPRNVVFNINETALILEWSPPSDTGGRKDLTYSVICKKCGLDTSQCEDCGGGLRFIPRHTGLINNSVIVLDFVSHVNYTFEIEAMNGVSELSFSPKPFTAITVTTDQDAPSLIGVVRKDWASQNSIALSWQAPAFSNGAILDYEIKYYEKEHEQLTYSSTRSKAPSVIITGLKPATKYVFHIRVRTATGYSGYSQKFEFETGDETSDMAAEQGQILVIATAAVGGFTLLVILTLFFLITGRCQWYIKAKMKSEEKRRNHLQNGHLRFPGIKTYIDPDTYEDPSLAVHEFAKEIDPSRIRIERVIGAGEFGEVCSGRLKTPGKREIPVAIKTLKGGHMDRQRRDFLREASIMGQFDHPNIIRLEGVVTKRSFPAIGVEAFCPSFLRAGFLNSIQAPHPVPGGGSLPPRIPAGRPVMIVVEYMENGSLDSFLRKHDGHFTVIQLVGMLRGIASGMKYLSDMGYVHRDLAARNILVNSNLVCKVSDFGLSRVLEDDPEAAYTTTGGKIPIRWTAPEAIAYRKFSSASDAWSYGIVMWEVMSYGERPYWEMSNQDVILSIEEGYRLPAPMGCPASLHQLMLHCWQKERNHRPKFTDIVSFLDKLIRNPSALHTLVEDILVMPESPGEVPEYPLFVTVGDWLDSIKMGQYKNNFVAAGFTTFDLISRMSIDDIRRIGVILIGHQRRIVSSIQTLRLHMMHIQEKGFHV

Block 1 — tested at: 1 µM; endpoint: remaining binding
Structure (SMILES): CCC(=O)N[C@H]1CC[C@@H](C(=O)N(C)c2ccc(-c3nc4ccccc4o3)cc2)C1
Receptor-type tyrosine-protein kinase FLT3 (FLT3, Homo sapiens, UniProt P36888, D835Y); cell-free assay, competition with immobilised ligand: 100%
Cyclin-dependent kinase 19 (CDK19, Homo sapiens, UniProt Q9BWU1); competition binding: 100%
Ephrin type-A receptor 6 (EPHA6, Homo sapiens, UniProt Q9UF33); cell-free assay, competition with immobilised ligand: 76%
Megakaryocyte-associated tyrosine-protein kinase (MATK, Homo sapiens, UniProt P42679); cell-free assay, competition with immobilised ligand: 100%
Serine/threonine-protein kinase D3 (PRKD3, Homo sapiens, UniProt O94806); cell-free assay, competition with immobilised ligand: 100%

Block 2 — method: two-hybrid; relative to: out of 4 tests; reading: higher = firmer interaction; endpoint: positive tests
Partner: ARF16 570-670 (Arabidopsis thaliana, UniProt Q93YR9)
B1: ARF11 500-622 (Arabidopsis thaliana, UniProt Q9ZPY6); chain SPKEQKQQTSTRSRIKVQMQGTAVGRAVDLTLLRSYDELIKELEKMFEIEGELSPKDKWAIVFTDDEGDRMLVGDDPWNEFCKMAKKLFIYPSDEVKKMRSKSLLGDKGTIVNLESDQRTVHV
B2: ARF14 497-605 (Arabidopsis thaliana, UniProt Q9LQE8); chain SPTEIQSKQFSSTRTCTKVQMQGVTIGRAVDLSVLNGYDQLILELEKLFDLKGQLQARNQWEIAFTNNEEDKMLVGEDPWPEFCNMVKKIFIYSKEEVKNLKSRKSLSS
B3: IAA13 (Arabidopsis thaliana, UniProt Q38831); chain MITELEMGKGESELELGLGLSLGGGTAAKIGKSGGGGAWGERGRLLTAKDFPSVGSKRAADSASHAGSSPPRSSSQVVGWPPIGSHRMNSLVNNQATKSAREEEEAGKKKVKDDEPKDVTKKVNGKVQVGFIKVNMDGVAIGRKVDLNAHSSYENLAQTLEDMFFRTNPGTVGLTSQFTKPLRLLDGSSEFVLTYEDKEGDWMLVGDVPWRMFINSVKRLRVMKTSEANGLAARNQEPNERQRKQPV
B4: ARF5 788-902 (Arabidopsis thaliana, UniProt P93024); chain ATPRVRTYTKVQKTGSVGRSIDVTSFKDYEELKSAIECMFGLEGLLTHPQSSGWKLVYVDYESDVLLVGDDPWEEFVGCVRCIRILSPTEVQQMSEEGMKLLNSAGINDLKTSVS
B5: ARF8 699-811 (Arabidopsis thaliana, UniProt Q9FGV1); chain NSSNQTKNFVKVYKSGSVGRSLDISRFSSYHELREELGKMFAIEGLLEDPLRSGWQLVFVDKENDILLLGDDPWESFVNNVWYIKILSPEDVHQMGDHGEGSGGLFPQNPTHL
B6: IAA18 (Arabidopsis thaliana, UniProt O24408); chain MEGYSRNGEISPKLLDLMIPQERRNWFHDEKNSVFKTEEKKLELKLGPPGEEDDDESMIRHMKKEPKDKSILSLAGKYFSPSSTKTTSHKRTAPGPVVGWPPVRSFRKNLASGSSSKLGNDSTTSNGVTLKNQKCDAAAKTTEPKRQGGMFVKINMYGVPIGRKVDLSAHNSYEQLSFTVDKLFRGLLAAQRDFPSSIEDEKPITGLLDGNGEYTLTYEDNEGDKMLVGDVPWQMFVSSVKRLRVIKTSEISSALTYGNGKQEKMRR
B7: IAA17 (Arabidopsis thaliana, UniProt P93830); chain MMGSVELNLRETELCLGLPGGDTVAPVTGNKRGFSETVDLKLNLNNEPANKEGSTTHDVVTFDSKEKSACPKDPAKPPAKAQVVGWPPVRSYRKNVMVSCQKSSGGPEAAAFVKVSMDGAPYLRKIDLRMYKSYDELSNALSNMFSSFTMGKHGGEEGMIDFMNERKLMDLVNSWDYVPSYEDKDGDWMLVGDVPWPMFVDTCKRLRLMKGSDAIGLAPRAMEKCKSRA
B8: IAA16 (Arabidopsis thaliana, UniProt O24407); chain MINFEATELRLGLPGGNHGGEMAGKNNGKRGFSETVDLKLNLSSTAMDSVSKVDLENMKEKVVKPPAKAQVVGWPPVRSFRKNVMSGQKPTTGDATEGNDKTSGSSGATSSASACATVAYVKVSMDGAPYLRKIDLKLYKTYQDLSNALSKMFSSFTIGNYGPQGMKDFMNESKLIDLLNGSDYVPTYEDKDGDWMLVGDVPWEMFVDSCKRIRIMKGSEAIGLAPRALEKCKNRS
Construct (chain): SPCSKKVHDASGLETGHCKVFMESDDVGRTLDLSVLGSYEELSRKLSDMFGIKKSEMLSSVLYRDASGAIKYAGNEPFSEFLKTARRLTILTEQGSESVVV
B1 (ARF11 500-622): 0
B2 (ARF14 497-605): 0
B3 (IAA13): 0
B4 (ARF5 788-902): 0
B5 (ARF8 699-811): 0
B6 (IAA18): 0
B7 (IAA17): 0
B8 (IAA16): 0

Block 3 — observed: enzyme activity; mode: inhibitor; tested at: 0.5 µM; relative to: control; endpoint: remaining activity
SMILES: Nc1[nH]nc2nnc(-c3c(-c4ccccc4)nn4ccccc34)cc12
Ribosomal protein S6 kinase beta-2 (RPS6KB2, Homo sapiens, UniProt Q9UBS0): 104%
Serine/threonine-protein kinase PAK 5 (PAK5, Homo sapiens, UniProt Q9P286): 98.2%
Tyrosine-protein kinase Fes/Fps (FES, Homo sapiens, UniProt P07332): 97.8%
Calcium/calmodulin-dependent protein kinase kinase 1 (CAMKK1, Homo sapiens, UniProt Q8N5S9): 125%
Serine/threonine-protein kinase PAK 1 (PAK1, Homo sapiens, UniProt Q13153): 91.9%
Serine/threonine-protein kinase Sgk2 (SGK2, Homo sapiens, UniProt Q9HBY8): 98.8%
Cyclin-dependent kinase 2, with cyclin E (CDK2, Homo sapiens, UniProt P24941): 101%
Serine/threonine-protein kinase BRSK2 (BRSK2, Homo sapiens, UniProt Q8IWQ3): 96.1%
Ephrin type-B receptor 3 (EPHB3, Homo sapiens, UniProt P54753): 96.8%
Cyclin-dependent kinase 5, with p35 (CDK5, Homo sapiens, UniProt Q00535): 105%
Calcium/calmodulin-dependent protein kinase type 1 (CAMK1, Homo sapiens, UniProt Q14012): 102%
Insulin-like growth factor 1 receptor (IGF1R, Homo sapiens, UniProt P08069): 102%
Serine/threonine-protein kinase SIK2 (SIK2, Homo sapiens, UniProt Q9H0K1): 93.6%

Single results of other studies
CCOC(=O)[C@@H]1CSCC(=O)N[C@H](CC)C(=O)N(C)[C@@H](C)C(=O)N[C@H](CC(C)C)C(=O)N2CCC[C@H]2C(=O)N(CC(C)C)CC(=O)N[C@@H](CC(C)C)C(=O)N(C)[C@H](C)C(=O)N[C@@H](CC(C)C)C(=O)N1C — logD (hydrocarbon/water): 0.815

Some of these lines once more (block 2):
B4 (ARF5 788-902): 0
B5 (ARF8 699-811): 0
B6 (IAA18): 0
